Measurements pooled from the literature.
Numbered parts are unrelated; each lists some results of a single study. Changes are numbered by the printed parent chain.

Sample 1
Target: Ras GTPase-activating protein-binding protein 1, full length (G3BP1, Homo sapiens, UniProt Q13283)
UniProt Q13283, sequence (whole entry, looked up): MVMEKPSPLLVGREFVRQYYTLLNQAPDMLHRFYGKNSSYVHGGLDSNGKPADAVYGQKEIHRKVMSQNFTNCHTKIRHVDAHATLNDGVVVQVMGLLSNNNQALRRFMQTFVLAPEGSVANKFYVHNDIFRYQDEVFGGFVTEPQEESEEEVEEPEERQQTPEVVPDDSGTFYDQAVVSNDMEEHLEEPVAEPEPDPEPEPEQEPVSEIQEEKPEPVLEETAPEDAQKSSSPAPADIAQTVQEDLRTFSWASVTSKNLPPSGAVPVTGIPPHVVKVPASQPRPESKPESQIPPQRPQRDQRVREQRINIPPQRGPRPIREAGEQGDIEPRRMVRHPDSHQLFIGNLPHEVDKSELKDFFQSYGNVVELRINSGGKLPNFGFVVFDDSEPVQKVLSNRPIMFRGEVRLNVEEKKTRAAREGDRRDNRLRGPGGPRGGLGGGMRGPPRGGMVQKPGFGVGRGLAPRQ
Method: RNA Bind-n-Seq
Molecule type: RNA
Medium: in vitro
Concentration: 200 nM
Notes: whole 134-nt RNA, ends assumed
Added: 150 mM LiCl
Baseline: input library
Direction: higher = stronger binding
Library: 7-deaza-guanosine replaces G
All sequences stand within: GGGAGUUCUACAGUCCGACGAUC … UGGAAUUCUCGGGUGUCAAGG
Strand	log2 enrichment
UCCUCAAGUCCUGUGCUACACAUCGUAUGUACCGAAUCGGUGGAAAGGAGGAAAGUAUUAUGUUACGCCGUUCGGAUCUGCACUUCCAGC	-0.21
CAAGUCCUGUGCUACACAUCGUAUGUACCGAAUCGGGAAAGGGAAAGGGGAAAGGAAAGUAUUAUGUUACGCCGUUCGGAUCUGCACUUC	-0.647
CACAGACAACACGCACCCACACAGACACAGAGGGAAGGGGCUGGGAUGGGGACAGGGUGCACAGCAGGGCGGGGUAGGACCCCAGCCCCU	0.145
CCUGUGCUACACAUCGUAUGUACCGAAUCGGGUUUUUUGGGUUUUUUGGGGUUUUUUGGGGAAAGUAUUAUGUUACGCCGUUCGGAUCUG	0.297
UCAAGUCCUGUGCUACACAUCGUAUGUACCGAAUCGGGGUGGGGAGGGGAGGGGAAAGUAUUAUGUUACGCCGUUCGGAUCUGCACUUCC	0.0847
UCCUCAAGUCCUGUGCUACACAUCGUAUGUACCGAAUCGGGGCGGCGGGCGGAAAGUAUUAUGUUACGCCGUUCGGAUCUGCACUUCCAG	0.248
CCUCAAGUCCUGUGCUACACAUCGUAUGUACCGAAUCGGGGAGGGGAGGGAGGAAAGUAUUAUGUUACGCCGUUCGGAUCUGCACUUCCA	0.0452
CACAGACAACACGCACCCACACAGACACAGAGGGAAGGGGUGGGGAUGGGGACAGGGUGCACAGCAGGGCGGGGUAGGACCCCAGCCCCU	-1.42

Sample 2
Target: ABI1, truncated, D143A, DHFR fusion (Arabidopsis thaliana, UniProt P49597)
Method: DHFR PCA, dose-response
Medium: yeast
Notes: Hill fit, mean, not affinity
Added: (+)-ABA, dose series
Direction: lower = more sensitive
Starting sequence: PYL1, truncated, DHFR fusion (Arabidopsis thaliana, UniProt Q8VZS8); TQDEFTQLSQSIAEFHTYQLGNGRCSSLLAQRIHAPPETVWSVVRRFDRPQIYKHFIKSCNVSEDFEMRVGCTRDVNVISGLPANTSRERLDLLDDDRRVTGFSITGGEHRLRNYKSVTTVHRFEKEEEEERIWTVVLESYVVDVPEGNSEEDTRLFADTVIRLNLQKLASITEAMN
Variant	ABA EC50 [µM]
D3K	6.44
R49V	9.02
E139L	33.9
T119C	4.73
D3L	5.85
A30S	1.4
I79Q	5.02
V161F	7.91
E109T	4.15
V118T	1.64
T160L	2.9
D3E	6.66
I52W	12.2
A84E	522

Sample 3
Target: CCNB1, cyclin fold, Cln2 fusion (human)
Method: yeast growth competition, sequencing
Medium: yeast
Notes: weak parent motif
Baseline: not given
Direction: higher = stronger binding
Starting sequence: CDAN1 docking peptide (human); RGARSQLFPPTEA
Variant	normalised enrichment score
RGARSQLFAPTEA [P9A]	0.46
RGAASQLFPPTEA [R4A]	0.126
RGARSQLAPPTEA [F8A]	0.509
RGARSQLFPPTAA [E12A]	0.283
RAARSQLFPPTEA [G2A]	0.15

Sample 4
Target: Hepatocyte nuclear factor 3-alpha (Foxa1, Mus musculus, UniProt P35582, residues 1-468, full length assumed)
Method: EMSA with sequencing
Molecule type: double-stranded DNA, one strand shown
Medium: in vitro
Concentration: 10 and 20 nM
Notes: whole designed probe, mean of two concentrations, ends assumed
Baseline: negative control set to 0
Direction: higher = stronger binding
Construct (chain): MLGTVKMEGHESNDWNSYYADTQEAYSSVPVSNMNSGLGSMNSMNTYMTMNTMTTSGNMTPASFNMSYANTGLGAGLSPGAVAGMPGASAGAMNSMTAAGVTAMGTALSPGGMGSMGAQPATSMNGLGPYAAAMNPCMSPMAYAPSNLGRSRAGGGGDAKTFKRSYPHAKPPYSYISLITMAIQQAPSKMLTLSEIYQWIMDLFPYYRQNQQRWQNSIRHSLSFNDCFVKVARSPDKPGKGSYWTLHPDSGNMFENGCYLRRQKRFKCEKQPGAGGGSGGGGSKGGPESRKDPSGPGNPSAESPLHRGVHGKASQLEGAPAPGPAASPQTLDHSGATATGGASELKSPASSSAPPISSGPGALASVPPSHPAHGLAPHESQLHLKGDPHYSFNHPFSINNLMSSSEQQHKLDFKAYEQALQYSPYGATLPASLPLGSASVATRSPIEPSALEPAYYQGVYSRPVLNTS
Strand	normalised bound fraction [ratio]
GTGAGCGGTGCCCATTGATGGGGAACCTTCTTAGCCCTGGTGCTATTTCTTGGCTTCCACACATTCTGTACAATTGCAGCCCTGACAGCTAATTTAGCTTCACTGTTGGTGAGTTTCTTGTTTGCTTTTGCTGCTGTCCAAAAGATTCTAGGTGCTGAATGACGCCATCTGTATGTTGCTAGAGGCTGAGAGGGGGCTGGGAGGAAGCCTTAAGTCAAGTTTCACTGGGATCGTGGGGAC	0.346
GTGAGCGGTGCCCATTGATGGGGAACCTCCAGGGTAGTTGTCCTTCCTGTGGCTGCTCACTGATCCAGGCTACTTTGATCTTGTGACTCAAAGTTCAACAAAATGTGGATGCGTCATTTTATTTACACTTCAATGGCCAGAAGGCCTCATCTTACGAAATCCAGTTGCAAGAAGTTTGGGAAATGTAGCCTTCCATATTTACAGGAATAAATGAAAAACTTTCACTGGGATCGTGGGGAC	0.269
GTGAGCGGTGCCCATTGATGGGGAACAATATTTCAAACACTACGTACCCCAACTGACATTTGAGTAGCAGTTAAGTTCTTGGAACGTTACGTAACGCTGCCATTTTGATCTAGCTCATTGTAAACAGGATGAAATAGGGCAGTTAAAAGACTAATGGTCAGTGAAATCTACAACAGGAATGGAAAGAATTTTCCCCTTAAAAATTTGGAAATCCTTATTTTTCACTGGGATCGTGGGGAC	-0.0201
GTGAGCGGTGCCCATTGATGGGGAACATCTTCCCCCTCTTCCTTGCCCCACCAGCTCACCTTCCCGGGTATATTGGAGATAGGAAATTAATATAAGCCGGCATTCGTTAACCCTCTTCACGCGCATACTGCACATTGGTCTGGATCTAACATGGTCCTTTGGCGACGCCAGGCTCCGGGAGAGCAAAGCACCGTGTCAGGGCCATGATCCGGGGTGGCCTTTCACTGGGATCGTGGGGAC	0.0334

For quick reference, copied from above (sample 2):
Variant	ABA EC50 [µM]
A30S	1.4
I79Q	5.02
V161F	7.91
E109T	4.15
V118T	1.64
